Measurements collected from several papers.
± gives the spread as reported.
Target: ATP-dependent translocase ABCB1 (ABCB1, Homo sapiens, UniProt P08183)
UniProt P08183, sequence (whole entry, looked up): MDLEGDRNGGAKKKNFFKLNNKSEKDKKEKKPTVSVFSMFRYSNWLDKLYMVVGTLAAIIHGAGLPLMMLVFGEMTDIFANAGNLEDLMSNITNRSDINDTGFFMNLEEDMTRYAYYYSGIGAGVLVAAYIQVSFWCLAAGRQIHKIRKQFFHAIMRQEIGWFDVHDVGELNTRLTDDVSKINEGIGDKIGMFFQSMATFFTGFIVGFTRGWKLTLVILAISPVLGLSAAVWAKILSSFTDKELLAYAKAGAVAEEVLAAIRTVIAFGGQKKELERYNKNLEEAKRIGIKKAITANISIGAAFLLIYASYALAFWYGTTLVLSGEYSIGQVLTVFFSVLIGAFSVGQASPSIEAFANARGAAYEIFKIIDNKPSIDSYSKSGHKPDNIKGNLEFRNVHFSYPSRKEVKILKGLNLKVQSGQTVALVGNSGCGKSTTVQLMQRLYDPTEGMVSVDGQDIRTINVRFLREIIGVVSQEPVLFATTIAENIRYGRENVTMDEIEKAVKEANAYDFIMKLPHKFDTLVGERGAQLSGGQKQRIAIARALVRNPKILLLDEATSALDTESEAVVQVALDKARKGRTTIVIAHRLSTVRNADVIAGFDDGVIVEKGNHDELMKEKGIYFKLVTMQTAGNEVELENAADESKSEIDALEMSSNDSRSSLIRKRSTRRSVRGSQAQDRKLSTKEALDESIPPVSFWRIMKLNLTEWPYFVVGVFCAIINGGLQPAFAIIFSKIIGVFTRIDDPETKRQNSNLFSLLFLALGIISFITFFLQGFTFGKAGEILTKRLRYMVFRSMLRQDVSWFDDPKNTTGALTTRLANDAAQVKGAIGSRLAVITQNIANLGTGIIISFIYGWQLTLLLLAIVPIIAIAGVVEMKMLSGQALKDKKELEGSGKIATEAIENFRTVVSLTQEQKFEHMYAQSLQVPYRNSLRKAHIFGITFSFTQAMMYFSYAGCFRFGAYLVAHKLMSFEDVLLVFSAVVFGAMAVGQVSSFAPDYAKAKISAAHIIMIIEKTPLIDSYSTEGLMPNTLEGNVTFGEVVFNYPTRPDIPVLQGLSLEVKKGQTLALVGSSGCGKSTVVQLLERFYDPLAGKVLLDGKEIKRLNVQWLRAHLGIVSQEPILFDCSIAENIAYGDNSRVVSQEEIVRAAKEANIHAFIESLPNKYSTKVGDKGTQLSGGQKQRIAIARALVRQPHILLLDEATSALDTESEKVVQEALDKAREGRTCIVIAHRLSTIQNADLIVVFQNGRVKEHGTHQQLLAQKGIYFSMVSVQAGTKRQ

SMILES	test	system	setting	how to read	quantity	value
COc1cc(CCOC(C)=O)cc(-c2cc(CCOC(C)=O)cc(OC)c2O)c1O	rhodamine 123 efflux	–	50 µM	reference: GF120918 0.5 µM	inhibition	-0.4 ± 1.3%
CC(=O)OC1O[C@@H]2O[C@@]3(C)CC[C@H]4[C@H](C)CCC([C@H]1C)[C@@]24OO3 (stereo partly shown)	calcein-AM efflux, inhibitor, flow cytometry	CEM/ADR5000	30 min, added: calcein-AM 1 µM	reference: untreated	maximal effect	916%
CC(C)C(=O)Cc1c(OCC(O)C(C)(C)O)ccc2ccc(=O)oc12 (stereo not shown)	inhibitor, rhodamine 123 retention	COLO 320 and COLO 205	2 µM, added: rhodamine 123 5.2 µM	reference: COLO 320 over COLO 205, higher = stronger inhibition	fluorescence activity ratio	1.84
N#Cc1nc(N2CCOCC2)nc(N(Cc2ccc(F)cc2)CC2CCCNC2)n1 (stereo not shown)	–	MDCKII-MDR1	1 µM, 4 h	–	Papp B-A	447 ×10⁻⁶ cm/s
CC(=O)OCCc1ccc(O)c(-c2cc(CCOC(C)=O)ccc2O)c1	rhodamine 123 efflux	–	50 µM	reference: GF120918 0.5 µM	inhibition	-0.1 ± 1.6%
CC1(C)OC(=O)C[C@H](O)[C@]2(C)[C@H]3CC[C@@]4(C)[C@H](c5ccoc5)OC(=O)[C@H]5O[C@]54[C@]3(C)C(=O)C[C@@H]12	inhibitor, rhodamine 123 retention	COLO 320 and COLO 205	2 µM, added: rhodamine 123 5.2 µM	reference: COLO 320 over COLO 205, higher = stronger inhibition	fluorescence activity ratio	1.01
COc1cc(/C=C/C(=O)c2ccc3c(c2)OCO3)ccc1OCc1ccccc1	mitoxantrone efflux, flow cytometry	–	10 µM	–	inhibition	no inhibition
CC(C)C(=O)OC1O[C@@H]2O[C@@]3(C)CC[C@H]4[C@H](C)CCC([C@H]1C)[C@@]24OO3 (stereo partly shown)	calcein-AM efflux, inhibitor, flow cytometry	CEM/ADR5000	30 min, added: calcein-AM 1 µM	reference: untreated	maximal effect	1240 ± 78.2%
Cn1ccc2cc(-n3c(=O)[nH]c4sc5c(c4c3=O)CCCC5)ccc21	–	MDCK-MDR1	5 µM	–	Papp B→A	66.2 ×10⁻⁶ cm/s
C[C@H]1C(NCCS)O[C@@H]2O[C@@]3(C)CC[C@H]4[C@H](C)CCC1[C@@]24OO3 (stereo partly shown)	calcein-AM efflux, inhibitor, flow cytometry	CEM/ADR5000	30 min, added: calcein-AM 1 µM	reference: untreated	maximal effect	1010 ± 106%
OC1(C(F)(F)F)CCN(c2nc(Nc3ccnc(C(F)(F)F)c3)nc(-c3cccc(C(F)(F)F)n3)n2)C1 (stereo not shown)	transport activity, inhibitor	membrane vesicles	concentration not given	–	inhibition	no inhibition
CCCC(=O)OC1O[C@@H]2O[C@@]3(C)CC[C@H]4[C@H](C)CCC([C@H]1C)[C@@]24OO3 (stereo partly shown)	calcein-AM efflux, inhibitor, flow cytometry	CEM/ADR5000	30 min, added: calcein-AM 1 µM	reference: untreated	maximal effect	1390 ± 394%
CC(=O)OCCc1cc(O)c(O)c(-c2cc(CCOC(C)=O)cc(O)c2O)c1	rhodamine 123 efflux	–	50 µM	reference: GF120918 0.5 µM	inhibition	-0.3 ± 1.6%
